# Published values pooled from the literature.
# Each line is one published result; not all experiments were run side by side. Numbers after ± are the reported error.
# Organism: Escherichia coli
Structure (SMILES),test,test system,conditions,scale,endpoint,result
O=S(=O)(O)c1ccc(-c2ccc(S(=O)(=O)O)cc2)cc1,"bacterial growth, broth microdilution",expressing OXA-48,"4 µg/mL, together with: ampicillin",MIC of ampicillin,MIC of ampicillin,512 µg/mL
C[C@H](CS)C(=O)N[C@H](Cc1c[nH]c2ccccc12)C(=O)O,,VIM-1 producing,"50 µM, together with: meropenem",,MIC of meropenem,0.25 µg/mL
O=S(=O)(O)c1ccc2cc(S(=O)(=O)O)ccc2c1,"bacterial growth, broth microdilution",expressing OXA-48,"256 µg/mL, together with: ampicillin",MIC of ampicillin,MIC of ampicillin,32 µg/mL
NC[C@@H](NC[C@@H]1CCCN1C[C@@H](CO)NC[C@@H](NCCC1CC2CCC1C2)c1ccccc1)c1ccccc1 (stereo partly drawn),bacterial growth,,compound alone,,IC90,> 24 µM
O=S(=O)(O)c1ccc2c(c1)Cc1cc(S(=O)(=O)O)ccc1-2,"bacterial growth, inhibitor, broth microdilution",expressing OXA-48,"256 µg/mL, together with: ampicillin",reference: ampicillin alone,MIC fold reduction,16 fold
NC[C@@H](NC[C@@H]1CCCN1C[C@@H](CO)NC[C@@H](NCCc1ccc(-c2ccccc2)cc1)c1ccccc1)c1ccccc1,bacterial growth,,"8 µM, fold shift of IC50, together with: amikacin",,potentiation of amikacin,1 fold
CC(C)Oc1c(NC(=O)c2ccc(NC(=O)[C@H](CC(N)=O)NC(=O)c3cc(F)c(/N=N/c4c(Cl)cc(C#N)cc4Cl)c(F)c3)cc2)ccc(C(=O)N/N=C/c2c(F)cc(C(=O)O)cc2F)c1O,,BW25113,after 1 h irradiation at 450 nm,,MIC,> 6.4 µg/mL
CC(C)[C@H](NC(=O)N[C@@H](CCCCN)C(=O)N[C@@H](CNC(=O)CCCCCCCCCCS)C(=O)NCCCNC(C[C@H]1O[C@@H](n2ccc(=O)[nH]c2=O)[C@H](O)[C@@H]1O)C(=O)O)C(=O)O (stereo partly drawn),growth,delta tolC,,,IC50,23 ± 6 µM
NC[C@@H](NC[C@@H]1CCCN1C[C@@H](CO)NC[C@@H](NCCC12CC3CC(CC(C3)C1)C2)c1ccccc1)c1ccccc1,bacterial growth,,compound alone,,IC90,15.2 µM

# A few entries again:
Structure (SMILES),test,test system,conditions,scale,endpoint,result
NC[C@@H](NC[C@@H]1CCCN1C[C@@H](CO)NC[C@@H](NCCc1ccc(-c2ccccc2)cc1)c1ccccc1)c1ccccc1,bacterial growth,,"8 µM, fold shift of IC50, together with: amikacin",,potentiation of amikacin,1 fold
CC(C)[C@H](NC(=O)N[C@@H](CCCCN)C(=O)N[C@@H](CNC(=O)CCCCCCCCCCS)C(=O)NCCCNC(C[C@H]1O[C@@H](n2ccc(=O)[nH]c2=O)[C@H](O)[C@@H]1O)C(=O)O)C(=O)O (stereo partly drawn),growth,delta tolC,,,IC50,23 ± 6 µM
